# Measurements of several laboratories.
# Each numbered part is a random draw from the data of one study; scales do not carry over between parts.

# Block 1
# Target: Ras GTPase-activating protein-binding protein 1, full length (G3BP1, Homo sapiens, UniProt Q13283)
# Sequence of UniProt Q13283 (whole entry, looked up): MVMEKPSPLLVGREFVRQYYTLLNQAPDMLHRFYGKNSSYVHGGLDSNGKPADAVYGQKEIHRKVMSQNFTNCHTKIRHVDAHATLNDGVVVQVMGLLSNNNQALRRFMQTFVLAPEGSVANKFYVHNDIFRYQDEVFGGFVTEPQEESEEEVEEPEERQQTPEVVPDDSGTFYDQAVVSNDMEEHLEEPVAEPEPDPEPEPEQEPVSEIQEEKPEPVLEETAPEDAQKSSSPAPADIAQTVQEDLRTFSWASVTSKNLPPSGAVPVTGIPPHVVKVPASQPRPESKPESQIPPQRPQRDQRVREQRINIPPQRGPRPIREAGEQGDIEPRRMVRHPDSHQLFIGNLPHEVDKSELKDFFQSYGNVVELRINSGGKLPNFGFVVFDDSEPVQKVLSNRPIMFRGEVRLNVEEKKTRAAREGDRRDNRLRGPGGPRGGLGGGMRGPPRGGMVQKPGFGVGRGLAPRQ
# Method: RNA Bind-n-Seq
# Form: RNA
# Medium: in vitro
# Tested at: 200 nM
# Setting: whole 134-nt RNA, ends assumed
# With: 150 mM LiCl
# Relative to: input library
# Direction: higher = stronger binding
# Each molecule: 7-deaza-guanosine replaces G
Strand,log2 enrichment
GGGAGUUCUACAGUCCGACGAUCCAAGUCCUGUGCUACACAUCGUAUGUACCGAAUCGGGGAAAGGGGUGGGGAGGGGAAAGUAUUAUGUUACGCCGUUCGGAUCUGCACUUCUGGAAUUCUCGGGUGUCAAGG,0.143
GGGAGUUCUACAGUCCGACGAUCCUCAAGUCCUGUGCUACACAUCGUAUGUACCGAAUCGGCCGGGCCGGCCGGGGAAAGUAUUAUGUUACGCCGUUCGGAUCUGCACUUCCAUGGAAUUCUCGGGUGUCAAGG,0.597
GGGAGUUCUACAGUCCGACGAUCCAAGUCCUGUGCUACACAUCGUAUGUACCGAAUCGGUUUGGUUUUUGGUUUUUGGAAAGUAUUAUGUUACGCCGUUCGGAUCUGCACUUCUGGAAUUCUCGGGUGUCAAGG,-0.715
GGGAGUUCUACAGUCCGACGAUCCACAGACAACACGCACCCACACAGACACAGAGGGAAGGGGUUGGGAUGGGGACAGGGUGCACAGCAGGGCGGGGUAGAACCCCAGCCCCUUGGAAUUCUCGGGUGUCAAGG,-0.571
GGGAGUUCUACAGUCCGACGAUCAGUCCUGUGCUACACAUCGUAUGUACCGAAUCGUGUGUGUGUGUGUGUGUGUGUGUGAAAGUAUUAUGUUACGCCGUUCGGAUCUGCACUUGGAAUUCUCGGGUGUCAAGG,-0.559
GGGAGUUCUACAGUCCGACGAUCAGUCCUGUGCUACACAUCGUAUGUACCGAAUCGGGAAAAAAAGGGAAAAAGGGUGGGAAAGUAUUAUGUUACGCCGUUCGGAUCUGCACUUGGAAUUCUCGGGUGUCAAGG,-0.981
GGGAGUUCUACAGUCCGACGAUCUGGGAGGUGGAUUUUGUUUAAUUUUUUAGCUCAUUUCCAGGGGUGGGAAUUUUUUUUUAAUAUGUGUCAUGAAUAAAGUUGUUUUUGAAAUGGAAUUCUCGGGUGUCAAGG,-0.258
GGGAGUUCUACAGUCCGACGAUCCUGUGCUACACAUCGUAUGUACCGAAUCGGAAAAAAAGGGGAAAAAAAGGGGAAAAAAAGGAAAGUAUUAUGUUACGCCGUUCGGAUCUGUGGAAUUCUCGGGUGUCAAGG,0.0464
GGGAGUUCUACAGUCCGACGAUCAGUCCUGUGCUACACAUCGUAUGUACCGAAUCGGAAAAAGGGAAAAAGGAAAAAGGGGAAAGUAUUAUGUUACGCCGUUCGGAUCUGCACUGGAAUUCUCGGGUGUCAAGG,-0.549
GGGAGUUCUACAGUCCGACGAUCAAGUCCUGUGCUACACAUCGUAUGUACCGAAUCGGAAAAAGGUUUUUUUGGUUUGGAAAGUAUUAUGUUACGCCGUUCGGAUCUGCACUUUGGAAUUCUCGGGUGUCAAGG,-3.3
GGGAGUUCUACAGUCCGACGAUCUGGCCCUGGUGGCAUGCGGGGAGGAAGAGGUGUCCUCAUGGAUCGUGGUGGUCCCGGUGGAAUGUUCAGAGGUGGCCGUGGUGGAGACAGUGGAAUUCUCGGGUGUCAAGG,0.124

# Block 2
# Target: Max dimerization protein 1, bHLH-zipper, MAX partner unstated (MXD1, Homo sapiens, UniProt Q05195, residues 56-136)
# Method: protein-binding microarray
# Form: double-stranded DNA, one strand shown
# Medium: in vitro
# Tested at: not given
# Setting: k-mer, scored over probes, only values ≥0.25
# Direction: higher = stronger binding
# Residues (chain): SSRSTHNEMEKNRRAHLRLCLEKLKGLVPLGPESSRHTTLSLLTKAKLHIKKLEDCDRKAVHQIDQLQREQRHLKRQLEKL
Strand,E-score
CCCCCACG,0.385
CAACGAGG,0.267
ACGTGTGG,0.419
AAGCACGC,0.36
GCATGTGA,0.425
ACATGCGG,0.448
CACGCTGC,0.404
CACGACCA,0.288
CCCTCCCG,0.266
CACGCCCG,0.291
CATGCGCC,0.417
CGTGGTCC,0.37
ATCACATG,0.445
CCGCCCCG,0.335
ACATGGAA,0.354
CCCCCCGC,0.324
CGCATGGC,0.415
AAATGTGG,0.251
CGGGACAC,0.327
CTCCCACC,0.306
TCGCCACA,0.259
CACGCGCG,0.387
ACGTGTCC,0.394
GGGGTGGA,0.302
GGGGCGGA,0.307

# Block 3
# Target: Interferon regulatory factor 5, full length, phosphomimetic (IRF5, Homo sapiens, UniProt Q13568-2, residues 1-514, K96S/S451D/S453D/S456D/S462D)
# Method: protein-binding microarray
# Form: double-stranded DNA, one strand shown
# Medium: in vitro
# Tested at: 250 nM
# Setting: 60-bp whole probe
# With: salmon DNA 0.4 mg/ml
# Relative to: random background probes
# Direction: higher = stronger binding
# All sequences stand within: GCCTAGCAC … GTCTTGATTCGCTTGACGCTGCTG
Strand,log fluorescence
TTAGGTATAGACTTTCGGTTAGTGCTA,9.15 z-score
CCATCGATTTCTCTTTCCCAAGTGCTA,2.29 z-score
TTAGATCTCAGTATCGATGAGTGCTAG,4.79 z-score
GACGGTATCGTGTATCGGGACGTGCTA,1.33 z-score
TTCACTATTGCTTCCTCTTTGTGCTAG,1.35 z-score
GACGATTTCACTTTCGAGACGTGCTAG,8.55 z-score
TTAGGTATCGTTCTCCTTTAGTGCTAG,2.88 z-score
TCACATTTTGGTTTTCCACTGTGCTAG,1.29 z-score
GACGATTTCGGGCCTGGAGACGTGCTA,1.32 z-score
GACGGTTTCGGACTGGGGCCGTGCTAG,3.57 z-score
TACGGTATCCTTTTCCTGACGTGCTAG,0.46 z-score
GACGGACTGGGGACTGGGGAGGTGCTA,-0.235 z-score
TTAGGACTGGGAATGGGTTAGTGCTAG,-0.0907 z-score
TTAGAACGGGGGACTGGATTAGTGCTA,0.551 z-score
GGTATTATTTATTGTAGCCTCGTGCTA,0.628 z-score
TTTTTTTTTTTTTTTGTATTGTGCTAG,1.53 z-score
ATATATATTATATATTTATGTGTGCTA,1.18 z-score
GACGGTATTCTTTTCCTGACGTGCTAG,0.257 z-score
ACCAAAATCAAGTCTGGGCTAGTGCTA,0.137 z-score

# Single results of other studies
Molecule,target,test,system,setting,how to read,quantity,result
"PhoQ, residues 284 288 289 292 302 303 QWQEDG","PhoP, residues 12 14 15 18 19 TPLRH (Escherichia coli, UniProt P23836)","Sort-seq, refers to: YFP reporter",E. coli,"PhoQ-PhoP variant library, with: 10 µM Mg2+","relative to: high Mg2+ state, higher = stronger signaling",fold induction,0.757

# Excerpt of the above (block 2):
Strand,E-score
CTCCCACC,0.306
TCGCCACA,0.259
CACGCGCG,0.387
ACGTGTCC,0.394
